Measurements gathered from unrelated publications.
Each line is one published result; not all experiments were run side by side. Numbers after ± are the reported error.

| Compound | test system | conditions | scale | quantity | result |
| --- | --- | --- | --- | --- | --- |
| CSCC[C@H](NC(=O)[C@H](CC(C)C)NC(=O)[C@H](Cc1c[nH]cn1)NC(=O)CNC(=O)[C@@H](NC(=O)[C@H](C)NC(=O)[C@H](Cc1c[nH]c2ccccc12)NC(=O)[C@H](CCC(N)=O)NC(=O)CCCCCNC(=O)CNC(=O)CNC(=O)CNC(=O)CSC(C)=O)C(C)C)C(N)=O [technetium-99m labelled] | healthy Swiss mouse, small intestine, contents removed | intravenous, 18.5 MBq, 90 min |  | tissue uptake | 18.2 ± 2.27 %ID/g |
| CCCC[C@H](NC(=O)CCCCCCCNC(=O)c1ccc(NN)nc1)C(=O)N[C@H]1CC(=O)NCCCC[C@@H](C(N)=O)NC(=O)[C@H](Cc2c[nH]c3ccccc23)NC(=O)[C@H](CCCNC(=N)N)NC(=O)[C@@H](Cc2ccccc2)NC(=O)[C@H](Cc2c[nH]cn2)NC1=O [technetium-99m labelled] | C57 mouse, B16/F1 melanoma, pancreas | intravenous, 24 h |  | uptake | 0.06 ± 0.03 %ID/g |
| COc1cc(OC)cc(C2=C3c4ccccc4C(c4ccc(NC(=S)NCCOCCOCCOCCC(=O)N[C@@H](CC(C)C)C(=O)N[C@@H](C)C(=O)N[C@@H](CCCNC(=N)N)C(=O)N[C@@H](CC(C)C)C(=O)N[C@@H](CC(C)C)C(=O)N[C@H](C(N)=O)[C@@H](C)O)cc4)=[N+]3[B-](F)(F)n3c2c2ccccc2c3-c2ccc(NC(=S)NCCNC(=O)CCCC[C@@H]3SC[C@@H]4NC(=O)N[C@@H]43)cc2)c1 | DMSO |  | reference: methylene blue | fluorescence quantum yield | 0.44 |
| N=C(N)NCCC[C@@H]1NC(=O)[C@H](CCCCNC(=O)CNC(=O)CNC(=O)CNC(=O)CC[C@H](NC(=O)c2ccc(NN=Cc3ccccc3S(=O)(=O)O)nc2)C(=O)NCC(=O)NCC(=O)NCC(=O)NCCCC[C@@H]2NC(=O)[C@@H](Cc3ccccc3)NC(=O)[C@H](CC(=O)O)NC(=O)CNC(=O)[C@H](CCCNC(=N)N)NC2=O)NC(=O)[C@@H](Cc2ccccc2)NC(=O)[C@H](CC(=O)O)NC(=O)CNC1=O [technetium-99m labelled] | athymic nu/nu mouse, female, MDA-MB-435 xenograft | intravenous, 120 min | reference: tumour over liver | tumour to tissue ratio | 3.09 ± 0.76 |
| N=C(N)NCCC[C@@H]1NC(=O)[C@H](CCCCNC(=O)CC[C@H](NC(=O)CCOCCOCCOCCOCCNC(=O)CC[C@H](NC(=O)CN2CCN(CC(=O)O)CCN(CC(=O)O)CCN(CC(=O)O)CC2)C(=O)NCCOCCOCCOCCOCCC(=O)N[C@@H](CCC(=O)NCCCC[C@@H]2NC(=O)[C@@H](Cc3ccccc3)NC(=O)[C@H](CC(=O)O)NC(=O)CNC(=O)[C@H](CCCNC(=N)N)NC2=O)C(=O)NCCCC[C@@H]2NC(=O)[C@@H](Cc3ccccc3)NC(=O)[C@H](CC(=O)O)NC(=O)CNC(=O)[C@H](CCCNC(=N)N)NC2=O)C(=O)NCCCC[C@@H]2NC(=O)[C@@H](Cc3ccccc3)NC(=O)[C@H](CC(=O)O)NC(=O)CNC(=O)[C@H](CCCNC(=N)N)NC2=O)NC(=O)[C@@H](Cc2ccccc2)NC(=O)[C@H](CC(=O)O)NC(=O)CNC1=O [indium-111 labelled] | athymic nude mice, female, U-87 MG glioma xenograft, tumour and lungs | intravenous, 0.5 h | reference: tumour over lungs | tumour to tissue ratio | 4.06 ± 1.88 |
| CCCC[C@H](NC(=O)CNC(=O)CNC(=O)CNC(=O)c1ccc(NN)nc1)C(=O)N[C@H]1CC(=O)NCCCC[C@@H](C(N)=O)NC(=O)[C@H](Cc2c[nH]c3ccccc23)NC(=O)[C@H](CCCNC(=N)N)NC(=O)[C@@H](Cc2ccccc2)NC(=O)[C@H](Cc2c[nH]cn2)NC1=O [technetium-99m labelled] | C57 mouse, B16/F1 melanoma, skin | intravenous, 2 h |  | uptake | 0.31 ± 0.1 %ID/g |
| N=C(N)NCCC[C@@H]1NC(=O)[C@H](CCCCNC(=O)CC[C@H](NC(=O)CCOCCOCCOCCOCCNC(=O)CN2CCN(CC(=O)O)CCN(CC(=O)O)CCN(CC(=O)O)CC2)C(=O)NCCCC[C@@H]2NC(=O)[C@@H](Cc3ccccc3)NC(=O)[C@H](CC(=O)O)NC(=O)CNC(=O)[C@H](CCCNC(=N)N)NC2=O)NC(=O)[C@@H](Cc2ccccc2)NC(=O)[C@H](CC(=O)O)NC(=O)CNC1=O [indium-111 labelled] | athymic nude mice, female, U-87 MG glioma xenograft, tumour and kidney | intravenous, 0.5 h | reference: tumour over kidney | tumour to tissue ratio | 0.96 ± 0.18 |
| N=C(N)NCCC[C@@H]1NC(=O)[C@H](CCCCNC(=O)CC[C@H](NC(=O)[C@H](CCCCNC(=O)c2ccc(NN)nc2)NC(=O)c2ccc(NN)nc2)C(=O)NCCCC[C@@H]2NC(=O)[C@@H](Cc3ccccc3)NC(=O)[C@H](CC(=O)O)NC(=O)CNC(=O)[C@H](CCCNC(=N)N)NC2=O)NC(=O)[C@@H](Cc2ccccc2)NC(=O)[C@H](CC(=O)O)NC(=O)CNC1=O [technetium-99m labelled] | female athymic nude mice | intravenous, 1 h, U-87 MG glioma xenograft | reference: tumour over muscle | tissue ratio | 4.23 ± 1.27 |
| CCCC[C@H](NC(=O)CNC(=O)CNC(=O)c1ccc(NN)nc1)C(=O)N[C@H]1CC(=O)NCCCC[C@@H](C(N)=O)NC(=O)[C@H](Cc2c[nH]c3ccccc23)NC(=O)[C@H](CCCNC(=N)N)NC(=O)[C@@H](Cc2ccccc2)NC(=O)[C@H](Cc2c[nH]cn2)NC1=O [technetium-99m labelled] | C57 mouse, B16/F1 melanoma-bearing | intravenous, 0.5 h | reference: tumour over lung | tissue uptake ratio | 5.03 |
| N=C(N)NCCC[C@@H]1NC(=O)[C@H](CCCCNC(=O)CCOCCOCCOCCOCCNC(=O)CN2CCN(CC(=O)O)CCN(CC(=O)O)CCN(CC(=O)O)CC2)NC(=O)[C@@H](Cc2ccccc2)NC(=O)[C@H](CC(=O)O)NC(=O)CNC1=O [indium-111 labelled] | athymic nude mice, female, U-87 MG glioma xenograft, tumour and muscle | intravenous, 1 h | reference: tumour over muscle | tumour to tissue ratio | 6.89 ± 1.55 |

Repeated from above:
| Compound | test system | conditions | scale | quantity | result |
| --- | --- | --- | --- | --- | --- |
| COc1cc(OC)cc(C2=C3c4ccccc4C(c4ccc(NC(=S)NCCOCCOCCOCCC(=O)N[C@@H](CC(C)C)C(=O)N[C@@H](C)C(=O)N[C@@H](CCCNC(=N)N)C(=O)N[C@@H](CC(C)C)C(=O)N[C@@H](CC(C)C)C(=O)N[C@H](C(N)=O)[C@@H](C)O)cc4)=[N+]3[B-](F)(F)n3c2c2ccccc2c3-c2ccc(NC(=S)NCCNC(=O)CCCC[C@@H]3SC[C@@H]4NC(=O)N[C@@H]43)cc2)c1 | DMSO |  | reference: methylene blue | fluorescence quantum yield | 0.44 |
